Experimental data gathered from unrelated publications.
Each line is one published result; not all experiments were run side by side.
MET: Hepatocyte growth factor receptor (MET, Homo sapiens, UniProt P08581)

O=C1NC(=O)c2c1c1cc(F)c[n+]3c1c1c2c2cc(O)ccc2[n]1[Ru-4]312([N]=C=S)[S+]3CC[S+]1CC[S+]2CC3 (stereo not drawn) — remaining activity (MET; enzyme activity; 100 nM, human enzyme, together with: 10 µM ATP; baseline: untreated): 91%
O=C(CN1CN(c2ccccc2)C2(CCN(C(=O)c3cnc4[nH]ncc4c3)CC2)C1=O)NCC(F)(F)F — inhibition (MET; inhibitor; concentration not given): < 50%
Nc1ccc(/C=C/C(=O)N2CCc3c(oc4c(-c5ccc(F)cc5)cc(-c5ccc(C(=O)N6CCC(F)(F)CC6)cn5)cc34)C2)cn1 — remaining binding (MET; binding, competition with immobilised ligand; 1 µM): 100%
CCOC(=O)[C@@H]1Cc2c(cc([N+](=O)[O-])cc2[N+](=O)[O-])[C@H](O)[C@]12C(=O)Nc1ccc(Br)cc12 — remaining binding (MET; KINOMEscan; 100 nM; baseline: DMSO control): 57%
N[C@H](C(=O)N1CCCC1)C1CCN(c2nccc3c(-c4ncc(Cl)cc4Cl)cccc23)CC1 — inhibition (MET; kinase activity, inhibitor; 10 µM, together with: ATP 1 mM): 2.2%
CC(C)[C@H]1NC(=O)C[C@H]2/C=C/CCSSC[C@@H](NC1=O)C(=O)N[C@H](Cc1cccc3ccccc13)C(=O)NCC(=O)O2 — inhibition (Hepatocyte growth factor receptor (MET, Homo sapiens, UniProt P08581, M1250T); enzyme activity, inhibitor; 10 µM): -2.7%
O=C(O)c1ccccc1/C=N/Nc1nc(-c2ccccc2Cl)cs1 — inhibition (MET; enzyme activity, inhibitor; 1 µM): -8.5%
CS(C)(=O)=Nc1ccc(-c2ccc(-c3nc4cc(O[C@@H]5CO[C@H]6[C@@H]5OC[C@H]6O)[nH]c4cc3F)cc2)cc1 — inhibition (Hepatocyte growth factor receptor (MET, Homo sapiens, UniProt P08581, D1228N); enzyme activity, inhibitor; 10 µM): -23%
C[C@H](NCc1ccc(-c2ccc(C(F)(F)F)cc2)cc1)C(N)=O — inhibition (MET; cell-free assay, competition with immobilised ligand; 1 µM): 4%

A few entries again:
CS(C)(=O)=Nc1ccc(-c2ccc(-c3nc4cc(O[C@@H]5CO[C@H]6[C@@H]5OC[C@H]6O)[nH]c4cc3F)cc2)cc1 — inhibition (Hepatocyte growth factor receptor (MET, Homo sapiens, UniProt P08581, D1228N); enzyme activity, inhibitor; 10 µM): -23%
